# Measurements of several laboratories.
# Parts stem from different laboratories: compare values within a part only.

# Study 1
# Target: RNA binding protein fox-1 homolog 2, RRM domain, GST-SBP tag (RBFOX2, Homo sapiens, UniProt O43251-10, residues 100-194)
# Method: RNA Bind-n-Seq
# Molecule type: RNA
# Medium: in vitro
# Concentration: 365 nM
# Setting: natural RNA segment, single round, ends assumed
# Baseline: no-protein control
# Direction: higher = stronger binding
# All sequences stand within: GGGAGUUCUACAGUCCGACGAUC … UGGAAUUCUCGGGUGCCAA
# Construct (chain): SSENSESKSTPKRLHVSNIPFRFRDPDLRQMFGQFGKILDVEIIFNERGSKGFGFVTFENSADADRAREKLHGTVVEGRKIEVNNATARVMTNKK
Strand,RBNS enrichment (R)
AGUAUAUAAAAAUAAACAAAAAGUCCUUGAAGCUUUACAGUUAAUUUAGGUAUGGGCUUACUGGACUCCAACAUCUUUUGUACUCUUUCAUGCUUAUAUAGAAUCUGAGU,0.894
UUUGUUGGCAACAAAACAGGAUAUUUCUCUCCUGAAUGUUGGUUUUGCAGACCCUACACAGCGGCCCUGGAUAGUGAAUUUUACCCAGGUUUUUAGGGGUCAAGGAGGCC,0.376
CAAACAAUAAAAAAUUGUAUUUUUUCAAUAUUGUAUAAACAAUAGUGUUCUAAUUACCUUAAAAAAAAAUAAUGACCAGUUAAGAAUUGCUUUUGAUCUUGUCAAAAAAC,0.729
GUAGUAGAGUUUAAUUCACCAUAUGAACCUCAUUCUGAUGUUUUUGAUUUGAUAGUCUUGAUCUAAAAAUAAUGUUUUGUUAAUAUGUCACUAAAUUUCUAAAAACUGUA,0.926
UUCUGAGUUCAAAACCCAUAGCCCUGAGUUUGAAACUCAAAGUUCCAAAUUCCAGGAAGGUGCAGAGAUGCCUCUGAGCCCCGAGGAAAAGAAUCCCUUGAGCAUCUCCC,0.386
UUUAAAUUGCCUCAGUGAUACAGUAUAAAGAUAAACAGAAAUGCUGAGAUAAGCUUAGCACUUGAGUUGUACAACAGAACACUUGUACAAAAUAGAUUUUAAGGCUAACU,0.305
UCCCCCGCCUGUCAGUCUGGCCCCCUGUGCUUUGCUCCCUGUGCUCAGUGGUCACUUUCCCGCUCCCACUUGGGGCUGGGAGCCGUGCCACCAUCCCCUAGAAGUCCUGU,0.709

# Study 2
# Target: Interferon regulatory factor 7, full length, phosphomimetic (IRF7, Homo sapiens, UniProt Q92985, residues 1-503, S101K/S471D/S472D/S475D/S476D/S477D/S483D/S484D/S487D)
# Method: protein-binding microarray
# Molecule type: double-stranded DNA, one strand shown
# Medium: in vitro
# Concentration: 250 nM
# Setting: 60-bp whole probe
# Together with: salmon DNA 0.4 mg/ml
# Baseline: random background probes
# Direction: higher = stronger binding
# All sequences stand within: GCCTAGCAC … GTCTTGATTCGCTTGACGCTGCTG
# Construct (chain): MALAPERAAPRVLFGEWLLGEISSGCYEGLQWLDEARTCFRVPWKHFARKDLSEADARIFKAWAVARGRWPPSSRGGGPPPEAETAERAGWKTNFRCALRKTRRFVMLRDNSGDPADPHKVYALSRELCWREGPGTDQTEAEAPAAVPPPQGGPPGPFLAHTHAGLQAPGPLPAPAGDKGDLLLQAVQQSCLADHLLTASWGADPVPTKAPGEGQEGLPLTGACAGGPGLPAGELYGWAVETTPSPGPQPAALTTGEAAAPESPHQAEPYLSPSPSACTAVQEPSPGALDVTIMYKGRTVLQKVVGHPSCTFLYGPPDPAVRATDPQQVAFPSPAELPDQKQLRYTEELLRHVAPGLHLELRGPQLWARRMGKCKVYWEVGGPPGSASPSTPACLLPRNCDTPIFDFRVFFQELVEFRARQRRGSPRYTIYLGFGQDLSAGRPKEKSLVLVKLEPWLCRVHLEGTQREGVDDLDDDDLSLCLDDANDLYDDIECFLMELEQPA
Strand,log fluorescence [z-score]
GACGGTATCGACCATCGGGACGTGCTA,-0.362
GACGAACTGAGTATCGAGACGTGCTAG,0.0336
GACGGTATCGGTATCAGGACGTGCTAG,1.2
TGCCCCCACACTCCTAGCACGTGCTAG,0.0827
TTAGGACTGAACACTGGGTTAGTGCTA,-0.476

# Study 3
# Target: Sal-like protein 4, full length isoform B (SALL4, Homo sapiens, UniProt Q9UJQ4-2, residues 1-616)
# Method: universal PBM
# Molecule type: double-stranded DNA, one strand shown
# Medium: in vitro
# Concentration: not given
# Setting: 8-mer, flanks averaged, mean of replicates
# Direction: higher = stronger binding
# Construct (chain): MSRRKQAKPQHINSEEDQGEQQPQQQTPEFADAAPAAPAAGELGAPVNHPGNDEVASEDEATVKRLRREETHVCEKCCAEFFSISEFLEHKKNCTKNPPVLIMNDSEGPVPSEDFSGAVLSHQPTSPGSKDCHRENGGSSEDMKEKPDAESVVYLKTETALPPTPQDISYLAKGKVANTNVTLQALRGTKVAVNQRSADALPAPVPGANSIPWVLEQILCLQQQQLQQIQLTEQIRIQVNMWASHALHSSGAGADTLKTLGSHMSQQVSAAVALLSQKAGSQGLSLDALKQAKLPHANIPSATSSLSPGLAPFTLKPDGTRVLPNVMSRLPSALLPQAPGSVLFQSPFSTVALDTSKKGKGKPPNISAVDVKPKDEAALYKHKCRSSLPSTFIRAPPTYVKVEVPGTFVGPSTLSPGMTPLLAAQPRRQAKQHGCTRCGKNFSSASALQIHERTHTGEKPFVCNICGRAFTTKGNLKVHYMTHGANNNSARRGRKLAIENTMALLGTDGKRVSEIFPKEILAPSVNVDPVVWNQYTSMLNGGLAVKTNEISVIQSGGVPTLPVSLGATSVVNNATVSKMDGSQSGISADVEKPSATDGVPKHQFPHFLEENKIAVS
Strand,E-score
CACAGACG,-0.116
AGACCTGA,-0.0374
AGACAACT,0.0845
GAACCTTC,-0.0555
GAGCTCCC,-0.318
AACCACAT,0.237
AATAGGTA,0.321

# Mixed results
Molecule,target,assay,system,setting,scale,endpoint,value
"PhoQ, residues 284 288 289 292 302 303 SCKMEA","PhoP, residues 12 14 15 18 19 NQGLL (Escherichia coli, UniProt P23836)","Sort-seq, measured: YFP reporter",E. coli,"PhoQ-PhoP variant library, together with: 10 µM Mg2+","baseline: high Mg2+ state, higher = stronger signaling",fold induction,4.34

# A few entries again (study 1):
Strand,RBNS enrichment (R)
AGUAUAUAAAAAUAAACAAAAAGUCCUUGAAGCUUUACAGUUAAUUUAGGUAUGGGCUUACUGGACUCCAACAUCUUUUGUACUCUUUCAUGCUUAUAUAGAAUCUGAGU,0.894
UUUGUUGGCAACAAAACAGGAUAUUUCUCUCCUGAAUGUUGGUUUUGCAGACCCUACACAGCGGCCCUGGAUAGUGAAUUUUACCCAGGUUUUUAGGGGUCAAGGAGGCC,0.376
CAAACAAUAAAAAAUUGUAUUUUUUCAAUAUUGUAUAAACAAUAGUGUUCUAAUUACCUUAAAAAAAAAUAAUGACCAGUUAAGAAUUGCUUUUGAUCUUGUCAAAAAAC,0.729
